# Published values pooled from the literature.
# Compare with care: the assays were run in different laboratories. ± gives the spread as reported.
SMILES,assay,system,conditions,scale,quantity,result
CC[C@H](C)[C@H](NC(=O)[C@@H](N)CCCNC(=N)N)C(=O)N[C@H](C(=O)N1CCC[C@H]1C(=O)N[C@@H](C)C(N)=O)C(C)C,,"CD-1 mouse, female, plasma","intravenous, 90 mg/kg daily, day 14, infused over 1 min",,Tmax,3 min
CC(C)C[C@@H](NC(=O)[C@@H](Cc1ccccc1)NC(=O)[C@H](N)Cc1ccccc1)C(=O)N[C@H](CCCCN)C(=O)N1CCC(N)(C(=O)O)CC1,item: total radioactivity,human subjects on haemodialysis,"intravenous, time not given",,dose recovered in feces,58.8%
O=c1[nH]c(Cc2ccccn2)nc2c1cnn2C1CCOCC1,,"male human, plasma","oral, 0.5 mg, single dose",,AUC(0-inf),3.95 nM·h
CN[C@@](C)(C[18F])C(=O)O,,"SCID mouse A549 xenograft, brain","60 min, post injection",,tissue uptake,0.4 ± 0.04 %ID/g
[123I]c1cncc(OC[C@@H]2CCN2)c1,SPECT,"human, temporal lobe","intravenous bolus, 9.3 mCi",reference: plasma,tissue/plasma ratio,8.39
CCCCCOc1ccc(-c2cc(-c3ccc(C(=O)N[C@H]4C[C@@H](O)[C@@H](O)NC(=O)[C@@H]5[C@@H](O)[C@@H](C)CN5C(=O)[C@H]([C@H](O)CC(N)=O)NC(=O)[C@H]([C@H](O)[C@@H](O)c5ccc(O)c(OS(=O)(=O)O)c5)NC(=O)[C@@H]5C[C@@H](O)CN5C(=O)[C@H]([C@@H](C)O)NC4=O)cc3)no2)cc1,,"human paediatric patients 2 to 5 years, plasma","intravenous, 4.5 mg/kg once daily, day 7, mean",,Tmax,78 min
COc1ccc(C[C@@H]2NC(=O)[C@H]([C@@H](C)O)NC(=O)[C@@H]3[C@@H]4CCN3C(=O)[C@@H]3Cc5cn(c6ccc(F)cc56)CCCCCCN(Cc5ccc(cc5)CCNC(=O)[C@]5(C)CCCN5C2=O)C(=O)CCC(=O)N[C@@H](C)C(=O)N[C@H](CNC(=O)CCCCC[N+](C)(C)C)C(=O)N[C@@H](Cc2cccc(c2)CNC(=O)CO4)C(=O)N3)cc1,,"fasted healthy humans, plasma","oral, 100 mg single dose, with 1800 mg Labrasol, geometric mean",,CL/F,997 mL/min
CC[C@H](C)[C@H](NC(=O)[C@H](CO)NC(=O)[C@H](C)NC(=O)[C@@H](NC(=O)CNC(=O)[C@H](CO)NC(=O)[C@@H](NC(=O)[C@@H](NC(=O)[C@H](Cc1c[nH]cn1)NC(=O)[C@@H]1CCCN1C(=O)[C@@H](NC(=O)[C@H](CC(C)C)NC(=O)[C@H](CO)NC(=O)[C@H](CC(C)C)NC(=O)[C@@H](N)Cc1ccccc1)[C@@H](C)CC)[C@@H](C)CC)C(C)C)C(C)C)C(=O)N[C@@H](C)C(=O)N[C@@H](CCCCN)C(=O)N[C@@H](Cc1c[nH]cn1)C(=O)N[C@@H](Cc1ccccc1)C(N)=O,UPLC-MS/MS,rat plasma,"0.05 µg/mL, 4 h, room temperature, short-term stability",,concentration found,53 ng/mL
CC(=O)N[C@@H](Cc1c[nH]c2ccccc12)C(=O)N[C@@H](CC(=O)O)C(=O)N[C@@H](CC(=O)O)C(=O)N[C@@H](C)C(=O)N[C@H](C(=O)N[C@@H](CCCCN)C(=O)N[C@H](C(=O)N[C@@H](Cc1c[nH]c2ccccc12)C(=O)N[C@H](C(=O)NCC(N)=O)[C@@H](C)O)[C@@H](C)O)[C@@H](C)O,circular dichroism,phosphate buffer,pH 6.5,,Tm,20 ± 2.5 °C
CCc1cccc(CC)c1N(COC)C(=O)CCl,LC-MS/MS,herbicide solution,"2 h, 4 °C, with: 254 nm UV exposure",,remaining amount,10.6 ± 4.85%
O=C(O)c1cc(O)c(O)c(O)c1,,zebrafish embryo AB wild type,"immersion semi-static, 24 h",,LC50,> 500 µg/mL

# Some of these lines once more:
SMILES,assay,system,conditions,scale,quantity,result
CC[C@H](C)[C@H](NC(=O)[C@H](CO)NC(=O)[C@H](C)NC(=O)[C@@H](NC(=O)CNC(=O)[C@H](CO)NC(=O)[C@@H](NC(=O)[C@@H](NC(=O)[C@H](Cc1c[nH]cn1)NC(=O)[C@@H]1CCCN1C(=O)[C@@H](NC(=O)[C@H](CC(C)C)NC(=O)[C@H](CO)NC(=O)[C@H](CC(C)C)NC(=O)[C@@H](N)Cc1ccccc1)[C@@H](C)CC)[C@@H](C)CC)C(C)C)C(C)C)C(=O)N[C@@H](C)C(=O)N[C@@H](CCCCN)C(=O)N[C@@H](Cc1c[nH]cn1)C(=O)N[C@@H](Cc1ccccc1)C(N)=O,UPLC-MS/MS,rat plasma,"0.05 µg/mL, 4 h, room temperature, short-term stability",,concentration found,53 ng/mL
CC(C)C[C@@H](NC(=O)[C@@H](Cc1ccccc1)NC(=O)[C@H](N)Cc1ccccc1)C(=O)N[C@H](CCCCN)C(=O)N1CCC(N)(C(=O)O)CC1,item: total radioactivity,human subjects on haemodialysis,"intravenous, time not given",,dose recovered in feces,58.8%
